# Experimental data pooled from the literature.
# Compare with care: the assays were run in different laboratories. ± marks the error that the study gave.
# Organism: Escherichia coli
SMILES,assay,test system,conditions,how to read,endpoint,value
CC(CCCOC(=O)CCC[N+](C)(C)C)C1CCC2C3C(OC(=O)CCC[N+](C)(C)C)CC4CC(OC(=O)CCC[N+](C)(C)C)CCC4(C)C3CC(OC(=O)CCC[N+](C)(C)C)C12C (stereo not shown),"microbial growth, disc diffusion",ATCC25922,"125 µg/disc, 24 h",,inhibition zone,8 mm
O=C(CCCc1cn(C[C@H]2O[C@@H]3O[C@H]4[C@H](O)[C@@H](O)[C@@H](O[C@H]5[C@H](O)[C@@H](O)[C@@H](O[C@H]6[C@H](O)[C@@H](O)[C@@H](O[C@H]7[C@H](O)[C@@H](O)[C@@H](O[C@H]8[C@H](O)[C@@H](O)[C@@H](O[C@H]9[C@H](O)[C@@H](O)[C@@H](O[C@H]2[C@H](O)[C@H]3O)O[C@@H]9CO)O[C@@H]8CO)O[C@@H]7CO)O[C@@H]6CO)O[C@@H]5CO)O[C@@H]4CO)nn1)N[C@H]1CCOC1=O,"LuxR reporter, antagonist",DH5α sensor strain,"20 µM, together with: OHHL 200 nM",,inhibition,3 ± 7%
CC(CCCOC(=O)CCC[N+](C)(C)C)C1CCC2C3CCC4CC(OC(=O)CCC[N+](C)(C)C)CCC4(C)C3CC(OC(=O)CCC[N+](C)(C)C)C12C (stereo not shown),"microbial growth, disc diffusion",ATCC25922,"62.5 µg/disc, 24 h",,inhibition zone,9 mm
COc1cc2c(cc1OC)-c1cc3ccc(OC)c(OC)c3c[n+]1CC2.[Cl][Fe-]([Cl])([Cl])[Cl],,,"24 h, 37 °C",,MIC50,368 µM
O=c1cccccc1O,"microbial growth, broth dilution",ATCC35218,,,MIC80,> 100 µM
N=C(N)NCCC[C@@H]1NC(=O)[C@H](CCCNC(=N)N)NC(=O)[C@@H](C(c2ccccc2)c2ccccc2)NC(=O)[C@H](Cc2c[nH]c3ccccc23)NC(=O)[C@@H](C(c2ccccc2)c2ccccc2)NC(=O)[C@@H](CCCNC(=N)N)NC(=O)[C@@H](CCCNC(=N)N)NC1=O,,ATCC BAA-2452,"2 x MIC, 24 h, preformed biofilm",,biofilm mass reduction,63 to 69%
O=C(CCCc1cn(C[C@H]2O[C@@H]3O[C@H]4[C@H](O)[C@@H](O)[C@@H](O[C@H]5[C@H](O)[C@@H](O)[C@@H](O[C@H]6[C@H](O)[C@@H](O)[C@@H](O[C@H]7[C@H](O)[C@@H](O)[C@@H](O[C@H]8[C@H](O)[C@@H](O)[C@@H](O[C@H]2[C@H](O)[C@H]3O)O[C@@H]8Cn2cc(CCCC(=O)N[C@H]3CCOC3=O)nn2)O[C@@H]7Cn2cc(CCCC(=O)N[C@H]3CCOC3=O)nn2)O[C@@H]6Cn2cc(CCCC(=O)N[C@H]3CCOC3=O)nn2)O[C@@H]5Cn2cc(CCCC(=O)N[C@H]3CCOC3=O)nn2)O[C@@H]4Cn2cc(CCCC(=O)N[C@H]3CCOC3=O)nn2)nn1)N[C@H]1CCOC1=O,"LuxR reporter, antagonist",DH5α sensor strain,"100 µM, together with: OHHL 200 nM",,inhibition,20 ± 3%
CC[C@H](C)[C@H](NC(=O)[C@H](CC1CCCCC1)NC(=O)[C@@H](Cc1ccccc1)NC(=O)[C@@H](N)CCCN)C(=O)N[C@H](Cc1ccccc1)C(=O)N[C@@H](Cc1cn(Cc2ccccc2)cn1)C(N)=O,bacterial growth,ATCC 35218,,,IC50,> 20 µg/mL
CO[C@@H]1[C@@H](OC)[C@H]2O[C@H]3[C@H](OC)[C@@H](OC)[C@@H](O[C@H]4[C@H](OC)[C@@H](OC)[C@@H](O[C@H]5[C@H](OC)[C@@H](OC)[C@@H](O[C@H]6[C@H](OC)[C@@H](OC)[C@@H](O[C@H]7[C@H](OC)[C@@H](OC)[C@@H](O[C@@H]1[C@@H](Cn1cc(CCCC(=O)N[C@H]8CCOC8=O)nn1)O2)O[C@@H]7Cn1cc(CCCC(=O)N[C@H]2CCOC2=O)nn1)O[C@@H]6Cn1cc(CCCC(=O)N[C@H]2CCOC2=O)nn1)O[C@@H]5Cn1cc(CCCC(=O)N[C@H]2CCOC2=O)nn1)O[C@@H]4Cn1cc(CCCC(=O)N[C@H]2CCOC2=O)nn1)O[C@@H]3Cn1cc(CCCC(=O)N[C@H]2CCOC2=O)nn1,"LuxR reporter, antagonist",DH5α sensor strain,"4 µM, together with: OHHL 200 nM",,inhibition,10 ± 2%
Cc1ccnc(-c2cc(C(=O)NCCCCCC(=O)N[C@@H](CCCNC(=N)N)C(=O)N[C@@H](Cc3c[nH]c4ccccc34)C(=O)N[C@@H](CCCNC(=N)N)C(=O)N[C@@H](Cc3c[nH]c4ccccc34)C(=O)N[C@@H](CCCNC(=N)N)C(=O)N[C@@H](Cc3c[nH]c4ccccc34)C(N)=O)ccn2)c1,,resistant,"16 µM, dark",reference: untreated,reduction in viable count,< 3 log10 CFU
CCCCCC(=O)Oc1c(C)c(OC)c2c(c1C)OC(=O)[C@@H](CCCC)[C@]2(O)/C=C/c1ccccc1 (relative stereo),"microbial killing, broth dilution",ATCC25922,,,MBC,> 5000 µg/mL
CC(C)c1ccc2c(c1)CCC1C(C)(CN(CC(O)C[N+](C)(C)C)CC(O)C[N+](C)(C)C)CCCC21C (stereo not shown),"microbial growth, disc diffusion",ATCC25922,"125 µg/disc, 24 h",,inhibition zone,8 mm
O=c1c(O)ccc(-c2ccccc2)cc1O,"microbial growth, broth dilution",ATCC35218,,,MIC80,66.7 µM
CC(CCCOC(=O)CCC[N+](C)(C)C)C1CCC2C3CCC4CC(OC(=O)CCC[N+](C)(C)C)CCC4(C)C3CCC12C (stereo not shown),"microbial growth, disc diffusion",ATCC25922,"125 µg/disc, 24 h",,inhibition zone,14 mm
CCCC(=O)Oc1c(C)c(OC)c2c(/C=C/c3ccccc3)c(CC)c(=O)oc2c1C,"microbial killing, broth dilution",ATCC25922,,,MBC,> 5000 µg/mL
CO[C@@H]1[C@@H](OC)[C@H]2O[C@H]3[C@H](OC)[C@@H](OC)[C@@H](O[C@H]4[C@H](OC)[C@@H](OC)[C@@H](O[C@H]5[C@H](OC)[C@@H](OC)[C@@H](O[C@H]6[C@H](OC)[C@@H](OC)[C@@H](O[C@H]7[C@H](OC)[C@@H](OC)[C@@H](O[C@H]8[C@H](OC)[C@@H](OC)[C@@H](O[C@@H]1[C@@H](Cn1cc(CCCC(=O)N[C@H]9CCOC9=O)nn1)O2)O[C@@H]8Cn1cc(CCCC(=O)N[C@H]2CCOC2=O)nn1)O[C@@H]7Cn1cc(CCCC(=O)N[C@H]2CCOC2=O)nn1)O[C@@H]6Cn1cc(CCCC(=O)N[C@H]2CCOC2=O)nn1)O[C@@H]5Cn1cc(CCCC(=O)N[C@H]2CCOC2=O)nn1)O[C@@H]4Cn1cc(CCCC(=O)N[C@H]2CCOC2=O)nn1)O[C@@H]3Cn1cc(CCCC(=O)N[C@H]2CCOC2=O)nn1,"LuxR reporter, antagonist",DH5α sensor strain,"100 µM, together with: OHHL 200 nM",,inhibition,21 ± 1%
N.N.[Cl][Pt+].c1ccc2c(c1)cnc1ccccc12,ICP-MS,,"20 µM, 24 h",,cellular uptake,7.34%
CCCCCCCCCC(=O)Oc1c(C)c(OC)c2c(/C=C/c3ccccc3)c(CCCCCCCC)c(=O)oc2c1C,"microbial growth, well diffusion",ATCC25922,5 µg/mL,,inhibition zone,12 mm
OC[C@H]1O[C@@H]2O[C@H]3[C@H](O)[C@@H](O)[C@@H](O[C@H]4[C@H](O)[C@@H](O)[C@@H](O[C@H]5[C@H](O)[C@@H](O)[C@@H](O[C@H]6[C@H](O)[C@@H](O)[C@@H](O[C@H]7[C@H](O)[C@@H](O)[C@@H](O[C@H]1[C@H](O)[C@H]2O)O[C@@H]7CO)O[C@@H]6CO)O[C@@H]5CO)O[C@@H]4CO)O[C@@H]3CO,"LuxR reporter, antagonist",DH5α sensor strain,"10 µM, together with: OHHL 200 nM",,inhibition,-1 ± 2%
CCCCCCCCCCCC(=O)Oc1c(C)c(OC)c2c(c1C)OC(=O)[C@@H](CCCCCCCCCC)[C@]2(O)/C=C/c1ccccc1 (relative stereo),"microbial killing, broth dilution",ATCC25922,,,MBC,> 5000 µg/mL
O=C(CCCc1cn(C[C@H]2O[C@@H]3O[C@H]4[C@H](O)[C@@H](O)[C@@H](O[C@H]5[C@H](O)[C@@H](O)[C@@H](O[C@H]6[C@H](O)[C@@H](O)[C@@H](O[C@H]7[C@H](O)[C@@H](O)[C@@H](O[C@H]8[C@H](O)[C@@H](O)[C@@H](O[C@H]9[C@H](O)[C@@H](O)[C@@H](O[C@H]2[C@H](O)[C@H]3O)O[C@@H]9Cn2cc(CCCC(=O)N[C@H]3CCOC3=O)nn2)O[C@@H]8Cn2cc(CCCC(=O)N[C@H]3CCOC3=O)nn2)O[C@@H]7Cn2cc(CCCC(=O)N[C@H]3CCOC3=O)nn2)O[C@@H]6Cn2cc(CCCC(=O)N[C@H]3CCOC3=O)nn2)O[C@@H]5Cn2cc(CCCC(=O)N[C@H]3CCOC3=O)nn2)O[C@@H]4Cn2cc(CCCC(=O)N[C@H]3CCOC3=O)nn2)nn1)N[C@H]1CCOC1=O,"LuxR reporter, antagonist",DH5α sensor strain,"100 µM, together with: OHHL 200 nM",,inhibition,59 ± 2%
CC[C@H](C)[C@H](NC(=O)[C@H](CCCN)NC(=O)[C@H](CC(N)=O)NC(=O)[C@H](Cc1c[nH]c2ccccc12)NC(=O)[C@H](Cc1ccccc1)NC(=O)[C@H](CCCN)NC(=O)[C@H](CCCCNC(=N)N)NC(=O)[C@H](CC(C)C)NC(=O)[C@H](Cc1c[nH]c2ccccc12)NC(=O)[C@H](CCCN)NC(=O)[C@H](CCCCNC(=N)N)NC(=O)[C@H](CC(C)C)NC(=O)CNC(C)=O)C(=O)N[C@@H](CCCN)C(=O)N[C@@H](CCCCNC(=N)N)C(N)=O,,ATCC 25922,"concentration not given, together with: NaCl 150 mM",reference: no added salt,MIC fold change,2 fold

# Some of these lines once more:
SMILES,assay,test system,conditions,how to read,endpoint,value
O=c1c(O)ccc(-c2ccccc2)cc1O,"microbial growth, broth dilution",ATCC35218,,,MIC80,66.7 µM
CC(CCCOC(=O)CCC[N+](C)(C)C)C1CCC2C3CCC4CC(OC(=O)CCC[N+](C)(C)C)CCC4(C)C3CCC12C (stereo not shown),"microbial growth, disc diffusion",ATCC25922,"125 µg/disc, 24 h",,inhibition zone,14 mm
